Experimental data collected from several papers.

| SMILES | test | system | setting | how to read | endpoint | value |
| --- | --- | --- | --- | --- | --- | --- |
| CNC(=O)c1cc(Oc2ccc(NC(=O)Nc3cc(C(C)(C)C)nn3-c3ccc4ncccc4c3)c(F)c2)ccn1 |  | patients | oral, dose not given, cycles 1 and 2, High AUC subgroup |  | patients with grade 1 cardiac disorders | 11% |
| C[C@@H](c1ccc2nccn2c1)n1nnc2ncc(-c3cnn(C)c3)nc21 | item: Thrombocytopenia grade ≥3 | EGFR-mutant MET-altered NSCLC | oral, study |  | patients with treatment-related AEs | 0% |
| Cc1cc(NC2CCN(C(=O)OC3CCN(C(=O)/C=C/CN(C)C)C3)CC2)n2ncc(C(C)C)c2n1 (centres unmarked) |  | patients with advanced solid tumours | dose not given, QD arm, any grade |  | patients with Fatigue | 33% |
| O=C(Nc1nc2cccc(-c3ccc(CN4CCS(=O)(=O)CC4)cc3)n2n1)C1CC1 | item: bile reflux into stomach | rheumatoid arthritis patients | oral, 30 mg once daily, 4 weeks, any relatedness |  | patients with adverse event | 0% |
| C=CC(=O)Nc1cc(Nc2nccc(-c3cn(C)c4ccccc34)n2)c(OC)cc1N(C)CCN(C)C | item: treatment-related grade ≥3 Anemia | EGFR-mutant MET-altered NSCLC | oral, dose not given, all |  | patients with adverse events | 0% |
| Cc1cc(-c2nnc(N)nc2-c2ccc(F)cc2)cc(Cl)n1 | item: Dizziness | other solid tumours, IO-naive | oral, 100 mg once daily, all grades |  | patients with treatment-related AE | 21.1% |
| COc1cc2nccc(Oc3ccc(NC(=O)c4cc5c(n(-c6ccccc6)c4=O)CCCC5=O)nc3)c2cc1OC |  | patients with relapsed/refractory AML | oral, 3 mg once daily |  | patients with drug-related serious TEAEs | 0% |
| C[C@@H](Nc1cc(F)cc(F)c1)c1cc(C(=O)N(C)C)cc2c(=O)cc(N3CCOCC3)oc12 | CTCAE v4, item: any AE | patients with advanced solid tumours | oral, dose not given, phase I dose expansion |  | patients discontinuing for AE | 5% |
| FC(F)(F)c1ccc(CNc2ccc(Cc3c[nH]c4ncc(Cl)cc34)cn2)cn1 | item: aspartate aminotransferase increased | patients with TGCT | oral, 1000 mg/day, all grades |  | patients with treatment-related adverse event | 18% |
| COc1cc(Nc2ncc3c(n2)-c2ccc(Cl)cc2C(c2c(F)cccc2OC)=NC3)ccc1C(=O)O |  | cancer patients | oral, dose not given, grade 4 any attribution, added: pembrolizumab |  | patients with respiratory failure | 4% |
| CNC(=O)c1ccc(-c2cnc3ncc(Cc4ccc5ncccc5c4)n3n2)cc1F | item: Hypoalbuminemia | other cancer patients | oral, 600 mg twice daily, expansion cohort, grade 3-4 |  | patients with adverse event | 0% |
| NC(=O)N1c2ccccc2C=Cc2ccccc21 |  | male patients | oral, dose not given, on-treatment adverse events |  | patients with Alopecia | 0% |
| CC(C)C[C@H](NC(=O)CNC(=O)c1cc(Cl)ccc1Cl)B(O)O | item: Thrombocytopenia, all grades | newly diagnosed multiple myeloma patients | oral, dose not given, maintenance phase, new onset, cycle 17 or later |  | patients with adverse event | 0% |
| CCOc1c([C@H](C)n2nc(C)c3c(N)ncnc32)cc(Cl)c(F)c1[C@@H]1CNC(=O)C1 | item: QTcF change ≤30 ms | previously treated B-cell malignancy | oral, 5 mg once daily, baseline QTcF ≤450 ms | reference: baseline | patients | 100% |

For quick reference, copied from above:
| SMILES | test | system | setting | how to read | endpoint | value |
| --- | --- | --- | --- | --- | --- | --- |
| COc1cc2nccc(Oc3ccc(NC(=O)c4cc5c(n(-c6ccccc6)c4=O)CCCC5=O)nc3)c2cc1OC |  | patients with relapsed/refractory AML | oral, 3 mg once daily |  | patients with drug-related serious TEAEs | 0% |
